Experimental data from different studies.
Protocols differ between the studies behind these lines. Numbers after ± are the reported error.
Cell line: U-87 MG

COc1cc(C#N)c(Oc2ccccc2C)cc1-n1c(=O)cc(S(=O)(=O)c2ccccc2)[nH]c1=O has an IC50 of about 24 µM.
With CC(=O)O[C@H]1C(=O)[C@@]2(C)[C@H]([C@H](OC(=O)c3ccccc3)[C@]3(O)C[C@H](OC(=O)[C@H](O)[C@@H](NC(=O)c4ccccc4)c4ccccc4)C(C)=C1C3(C)C)[C@]1(OC(C)=O)CO[C@@H]1C[C@@H]2O the IC50 was 1 µg/mL (cell growth).
Cc1ccc(C(=O)Nc2ccc(Oc3cc4cnn(C)c4cc3-c3cn[nH]c3)c(F)c2)c(=O)n1-c1ccc(F)cc1 has a maximal inhibition of 45% (cell proliferation, CellTiter-Glo; curve plateau).
NS(=O)(=O)c1ccc(Nc2nc3noc(-c4cccc(O)c4)c3s2)cc1 has an IC50 of 9.51 µM (MTT).
For COc1cccc2c1C(=O)c1c(O)c3c(c(O)c1C2=O)C[C@@](O)(C(=O)CO)C[C@@H]3O[C@H]1C[C@H](N)[C@H](O)[C@H](C)O1, the Emax was 79.9% (cytotoxicity, WST-1; 72 h, highest tested concentration).
NS(=O)(=O)c1ccc(Nc2nc3noc(-c4ccc(Cl)cc4)c3s2)cc1 gave an IC50 of 7.02 µM (MTT).
Under binding, CC[C@H](C)[C@H](NC(=O)[C@H](CCC(N)=O)NC(=O)CNC(=O)[C@H](Cc1c[nH]cn1)NC(=O)[C@H](CCCCN)NC(=O)[C@H](Cc1c[nH]cn1)NC(=O)[C@H](Cc1c[nH]cn1)NC(=O)CN)C(=O)N[C@@H](CCSC)C(=O)N1CCC[C@H]1C(=O)N[C@@H](CCSC)C(=O)N[C@@H](CO)C(=O)NCC(=O)NCC(=O)NCC(=O)N[C@@H](CO)C(=O)N[C@@H](CCCCNC(=O)CCCC[C@@H]1SC[C@@H]2NC(=O)N[C@@H]21)C(=O)O is recorded as “binds” (confocal microscopy; 10 µM, 20 min, 37 °C, biotin-labelled peptide).
COc1cc(C#N)c(Oc2ccccc2C)cc1-n1c(=O)cc(C(N)=O)[nH]c1=O gave an IC50 of about 30 µM.
C#Cc1cccc(Nc2ncnc3cc(OCCOC)c(OCCOC)cc23)c1 has an IC50 of 63 ± 5 µM (24 h).
C=C1C[C@](OC)([C@H](OCOC/C=C/B2OC(CC)(CC)C(CC)(CC)O2)C(=O)NC[C@@H]2C[C@@H](OC)C(C)(C)[C@@H](C[C@@H](COC)OC)O2)O[C@H](C)[C@@H]1C gave an IC50 of 0.026 ± 0.001 µM (cell viability, sulforhodamine B; 72 h, 37 °C, added: H2O2 100 µM).
With Nc1ccn([C@@H]2O[C@H](CO)[C@@H](O)C2(F)F)c(=O)n1 the ED50 was 0.0011 ± 0.0014 µM (cell proliferation, CCK-8; 4 d; relative to: untreated).
